Published values pooled from the literature.
Every numbered part comes from another study and shows a few of its results, in no order.

Set 1
Target: Histone acetyltransferase KAT6A, winged helix 1, GST fusion (KAT6A, Homo sapiens, UniProt Q92794, residues 1-85)
Technique: protein binding microarray
Molecule type: double-stranded DNA, one strand shown
Medium: in vitro
Concentration: not given
Notes: 8-mer, flanks averaged, mean of 2 arrays, mostly near background
Relative to: not given
Direction: higher = stronger binding
Residues (chain): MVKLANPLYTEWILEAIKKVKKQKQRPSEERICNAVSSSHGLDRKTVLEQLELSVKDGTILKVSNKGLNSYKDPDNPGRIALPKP
Strand | E-score
GGAGTGAC | 0.0262
GAGACACC | -0.0944
AACTTAGG | -0.16
ATTATAGA | -0.002
CAGGACCC | 0.0519

Set 2
Target: Sal-like protein 4, full length isoform A (SALL4, Homo sapiens, UniProt Q9UJQ4, residues 1-1053)
Sequence of UniProt Q9UJQ4 (whole entry, looked up): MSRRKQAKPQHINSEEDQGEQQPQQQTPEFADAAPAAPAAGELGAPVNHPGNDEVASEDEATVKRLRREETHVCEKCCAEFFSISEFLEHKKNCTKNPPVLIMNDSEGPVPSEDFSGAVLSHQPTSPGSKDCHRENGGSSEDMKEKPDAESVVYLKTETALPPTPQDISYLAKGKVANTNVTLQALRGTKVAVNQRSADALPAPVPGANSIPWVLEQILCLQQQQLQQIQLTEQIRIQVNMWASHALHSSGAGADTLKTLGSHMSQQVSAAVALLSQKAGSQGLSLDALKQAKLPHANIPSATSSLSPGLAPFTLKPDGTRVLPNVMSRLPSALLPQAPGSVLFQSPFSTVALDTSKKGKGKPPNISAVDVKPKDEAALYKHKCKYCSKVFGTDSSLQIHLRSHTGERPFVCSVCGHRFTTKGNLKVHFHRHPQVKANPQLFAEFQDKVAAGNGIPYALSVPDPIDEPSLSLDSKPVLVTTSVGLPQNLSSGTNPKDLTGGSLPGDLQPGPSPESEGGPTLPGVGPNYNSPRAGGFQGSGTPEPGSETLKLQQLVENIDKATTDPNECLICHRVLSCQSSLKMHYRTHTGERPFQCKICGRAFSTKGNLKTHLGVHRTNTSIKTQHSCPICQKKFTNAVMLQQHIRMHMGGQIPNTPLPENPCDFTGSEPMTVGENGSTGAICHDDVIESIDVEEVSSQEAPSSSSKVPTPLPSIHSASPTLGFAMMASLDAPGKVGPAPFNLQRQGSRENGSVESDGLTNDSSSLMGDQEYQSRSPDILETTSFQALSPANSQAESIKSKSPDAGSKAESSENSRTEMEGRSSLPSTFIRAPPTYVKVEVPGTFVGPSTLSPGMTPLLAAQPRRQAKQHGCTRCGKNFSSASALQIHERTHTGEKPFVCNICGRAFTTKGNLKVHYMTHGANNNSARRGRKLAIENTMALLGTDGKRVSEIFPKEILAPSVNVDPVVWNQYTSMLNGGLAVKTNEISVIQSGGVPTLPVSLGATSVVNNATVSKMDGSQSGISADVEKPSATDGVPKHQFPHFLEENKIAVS
Technique: universal PBM
Molecule type: double-stranded DNA, one strand shown
Medium: in vitro
Concentration: 600 nM
Notes: 8-mer, flanks averaged, mean of replicates
Direction: higher = stronger binding
Strand | E-score
CGAGTACA | 0.0258
CGTGAGCA | -0.259
CCATTAGC | -0.0253
CGACCACC | -0.23
AATTACCT | 0.267
TAATCCTA | 0.143
GGCAGCAC | -0.201
TCGGAGCA | -0.171
ACCGTGAG | -0.246

Set 3
Target: Interferon regulatory factor 7, full length, phosphomimetic (IRF7, Homo sapiens, UniProt Q92985, residues 1-503, S471D/S472D/S475D/S476D/S477D/S483D/S484D/S487D)
Sequence of UniProt Q92985 (whole entry, unmodified, looked up): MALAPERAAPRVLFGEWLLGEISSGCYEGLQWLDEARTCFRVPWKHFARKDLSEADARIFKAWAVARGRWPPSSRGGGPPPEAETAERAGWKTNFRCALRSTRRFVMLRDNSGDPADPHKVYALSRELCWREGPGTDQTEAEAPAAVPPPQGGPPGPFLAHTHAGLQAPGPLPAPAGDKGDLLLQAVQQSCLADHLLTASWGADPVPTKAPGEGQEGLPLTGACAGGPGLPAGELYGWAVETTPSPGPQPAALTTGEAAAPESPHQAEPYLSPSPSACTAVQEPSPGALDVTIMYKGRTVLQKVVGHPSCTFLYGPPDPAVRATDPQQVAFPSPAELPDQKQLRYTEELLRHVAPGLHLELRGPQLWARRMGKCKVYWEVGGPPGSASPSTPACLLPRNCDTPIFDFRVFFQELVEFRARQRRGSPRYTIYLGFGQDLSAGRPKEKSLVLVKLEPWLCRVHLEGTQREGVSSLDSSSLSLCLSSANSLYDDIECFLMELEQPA
Technique: protein-binding microarray
Molecule type: double-stranded DNA, one strand shown
Medium: in vitro
Concentration: 2200 nM top
Notes: 60-bp whole probe
Together with: salmon DNA 0.4 mg/ml
Relative to: random background probes
Direction: higher = stronger binding
Shared flanks, not repeated: GCCTAGCAC … GTCTTGATTCGCTTGACGCTGCTG
Strand | fitted relative affinity [z-score]
GGCGATCTCAGTTTCGAGACGTGCTAG | 3.1
TTAGGACTGGACTATCGGCTAGTGCTA | -0.659
TTAGGACTGGGTTACGGTTAGTGCTAG | -0.0463
GACGGTATCCTTCTCCAGACGTGCTAG | 0.899
TTAGAACTGAGTTTAGATTAGTGCTAG | -0.727
GAGGGTTTCGGACTGGGGACGTGCTAG | 1.65
GACGGTATGGACTATCGGGACGTGCTA | -0.246
TTAGGTTTCGGGACTGGTTTAGTGCTA | 3.34

Other studies, line by line
Molecule | target | test | test system | conditions | scale | endpoint | result
PhoQ, residues 284 288 289 292 302 303 WVSSAF | PhoP, residues 12 14 15 18 19 MHTVL (Escherichia coli, UniProt P23836) | Sort-seq, refers to: YFP reporter | E. coli | PhoQ-PhoP variant library, together with: 10 µM Mg2+ | relative to: high Mg2+ state, higher = stronger signaling | fold induction | 4.86

A few entries again (other studies, line by line):
Molecule | target | test | test system | conditions | scale | endpoint | result
PhoQ, residues 284 288 289 292 302 303 WVSSAF | PhoP, residues 12 14 15 18 19 MHTVL (Escherichia coli, UniProt P23836) | Sort-seq, refers to: YFP reporter | E. coli | PhoQ-PhoP variant library, together with: 10 µM Mg2+ | relative to: high Mg2+ state, higher = stronger signaling | fold induction | 4.86
